Experimental data collected from several papers.
Compare with care: the assays were run in different laboratories.
Target: Muscle, skeletal receptor tyrosine-protein kinase (MUSK, Homo sapiens, UniProt O15146)

SMILES	assay	conditions	how to read	quantity	value
NC(=O)[C@@H](O)C[C@H]1CCc2sc3ncnc(O[C@H]4CC[C@H](N5CCOCC5)CC4)c3c21	enzyme activity, inhibitor	10 µM		inhibition	42%
C=CC(=O)Nc1cccc(-c2cnc3[nH]cc(C(=O)NC(C)(C)C)c3n2)c1	enzyme activity, inhibitor	0.1 µM		inhibition	8%
CN1CC[C@@H](COc2cnc(C#N)cc2-c2ccn3nc(NC(=O)C4CC4)cc3c2)C1	enzyme activity, inhibitor	1 µM		inhibition	3%
CN1CCN(Cc2ccc(-c3ccc(CO[C@H]4CCC[C@@H]4NC(=O)c4cc(-c5cnn(C)c5)cnc4N)cc3)cc2)CC1	enzyme activity, inhibitor	0.1 µM		inhibition	9%
COc1c(Cl)cccc1Nc1c(-c2ccncc2C#C[C@@]2(C)CCCN2C(=O)/C=C/CN(C)C)[nH]c2c1C(=O)NCC2	binding, competition with immobilised ligand	3 µM		remaining binding	88%
CNC(=O)C1CCN(c2cc(C)c(F)cc2NC(=O)c2ccc(-c3cc(O)ccc3C)c(C)c2)CC1	binding, competition with immobilised ligand	1 µM		remaining binding	84%
CCN1CCN(Cc2ccc(C(=O)Nc3ccc(C)c(NCc4cnc5[nH]ccc5c4OC)c3)cc2C(F)(F)F)CC1	binding, competition with immobilised ligand	1 µM		remaining binding	3.9%
Cc1cccc(O[C@H]2CCC[C@@H](C(C)CNCc3ccncc3)C2)c1 (relative stereo)	enzyme activity, inhibitor	10 µM		inhibition	-3%
COCC12C(=O)NC3C4(C(OC)CC1O)C1CC5(O)C(OC)C(O)C(OC(C)=O)(C1C5OC(=O)c1ccccc1)C3(O)C(OC)C24 (stereo not drawn)	kinase activity, inhibitor, ProQinase kinase profiling	25 µM	reference: control	remaining activity	97%
CCN1CCN(Cc2ccc(NC(=O)c3ccc(C)c(NC(=O)c4cncc(-c5cccs5)c4)c3)cc2C(F)(F)F)CC1	binding, competition with immobilised ligand	1 µM		remaining binding	3%
COc1ccc(NC(=O)Nc2ccc3c(c2)C(=O)N(C(C)CO)CC(C)C(CN(C)Cc2ccc4c(c2)OCO4)O3)cc1 (stereo not drawn)	kinase activity, KinaseProfiler	0.03 µM, species human	reference: control	remaining activity	95%
COc1cc(Nc2nc(C)cc(-c3cnn4nc(OC)ccc34)n2)cc(C(F)(F)F)c1	inhibitor	1 µM	reference: control	remaining activity	100%
Cc1ccc(-c2c(/C=C(\C#N)C(=O)NC(C)C)n(CCCO)c3ncnc(N)c23)cc1	cell-free assay, competition with immobilised ligand	1 µM		remaining binding	100%
O=C(Cc1ccc(OCc2ccccc2)cc1)NC1(C(=O)O)CCN(C(=O)c2ccc(-c3cccc(Cl)c3)cc2)CC1	enzyme activity, inhibitor	10 µM		activity vs control	91%
CNC1C[S+]2CC[S+]3CC[S+](C1)[Ru-4]321([N]=C=S)[n]2c3ccc(OC)cc3c3c4c(c5cc(F)c[n+]1c5c32)C(=O)NC4=O (stereo not drawn)	KinomeScan	0.1 µM	reference: untreated	remaining binding	88%
